Measurements from different studies.
A part holds a random share of what one study measured.

Block 1 — technique: protein binding microarray; form: double-stranded DNA, one strand shown; sample: in vitro; concentration: not given; reference: not given; direction: higher = stronger binding
Target: Histone acetyltransferase KAT6A, winged helix 1, GST fusion (KAT6A, Homo sapiens, UniProt Q92794, residues 1-85)
Notes: 8-mer, flanks averaged, mean of 2 arrays, mostly near background
Residues (chain): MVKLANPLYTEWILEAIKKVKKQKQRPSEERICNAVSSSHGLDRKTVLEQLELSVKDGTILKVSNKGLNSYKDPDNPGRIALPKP
Oligonucleotide | E-score
GCAAGGGA | -0.0727
CTCCCCCC | -0.0662
CATTTAGC | -0.142
AGACGATG | -0.0207
AGGTATAC | 0.00208
TACCGTCA | 0.233
AGATTCGA | -0.242
AACGAGCA | -0.171
ATGTCCAG | -0.0238
CAATCCAG | -0.187
CCCGATTC | 0.0598
AACAAGTG | -0.111
ATGACGCC | 0.137
CCCGACCG | 0.349
CGCTGTAA | 0.189
GACTCAAA | -0.148
GATAGAGC | 0.0738
ACATTACC | 0.143
ATTGTCAA | -0.128
AGTAGAAA | -0.144
CCGACTCA | 0.0596

Block 2 — technique: protein-binding microarray; form: double-stranded DNA, one strand shown; sample: in vitro; concentration: 250 nM; notes: 60-bp whole probe; with: salmon DNA 0.4 mg/ml; reference: random background probes; direction: higher = stronger binding; shared flanks, not repeated: GCCTAGCAC … GTCTTGATTCGCTTGACGCTGCTG
Target: Interferon regulatory factor 5, full length, phosphomimetic (IRF5, Homo sapiens, UniProt Q13568-2, residues 1-514, K96S/S451D/S453D/S456D/S462D)
Oligonucleotide | log fluorescence [z-score]
GACGGTATCCTTCTCCTAACGTGCTAG | 0.295
GACGAACTGAGACTGGTGACGTGCTAG | -0.428
GACGATTTCAGAGTGGAGACGTGCTAG | 0.125
CCCTGTCTGTCCAGAAACCCGTGCTAG | -0.227
TTAGGTCTCCTACTGCCTTAGTGCTAG | -0.252
TCAATTATTGCTTCCTCACTGTGCTAG | 0.492
CATCATTGCCTATTTTTCCCCGTGCTA | 0.742
TTAGGTATCTGTATCGGTTAGTGCTAG | 5.96
GACGATGTCAGTCTCGAGACGTGCTAG | -0.19
GACGGTCTCGGTATCGTGACGTGCTAG | 0.375
TCACATTTTTTTTTTCAACTGTGCTAG | 1.1
TTAGATTTCTGTCTCGATTAGTGCTAG | 2.95
TTACAGATGTTTTTCATTTTGTGCTAG | 1.66
GACGGTTACGGTTCCGGGACGTGCTAG | 0.352
GACGATTTCAGTCTCGAGAGGTGCTAG | 1.09
TTGGGTATCGACACTGGGTTAGTGCTA | 2.24
ACTGCTCTGTTGCCTGGTCCTGTGCTA | -0.22
TCAACTTTGCTCTGTGCAACTGTGCTA | 0.344
TCAGCTTTTTAGATCGTACTGTGCTAG | 0.248

Block 3 — technique: RNA Bind-n-Seq; form: RNA; sample: in vitro; concentration: 365 nM; reference: no-protein control; direction: higher = stronger binding
Target: RNA binding protein fox-1 homolog 2, RRM domain, GST-SBP tag (RBFOX2, Homo sapiens, UniProt O43251-10, residues 100-194)
Notes: natural RNA segment, single round, ends assumed
Shared flanks, not repeated: GGGAGUUCUACAGUCCGACGAUC … UGGAAUUCUCGGGUGCCAA
Construct (chain): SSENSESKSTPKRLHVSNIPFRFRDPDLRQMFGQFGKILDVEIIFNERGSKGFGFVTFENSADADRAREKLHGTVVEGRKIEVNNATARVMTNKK
Oligonucleotide | RBNS enrichment (R)
AUAAUGUAUGAGAACUAGUUUCACAUCCUUUGAAACUAAUCUCUUUCAUUGGGGAGGAUACAACUUUUGACUUUACACAGGUGGACUUUGAAUCCAUUUUUAUAGAAUUU | 0.343
ACUUGUUCAUGAUUGUGCUCUGAACUGCAUGGGGAGUGUGGGGUGCUGCCUUGCUCGCUGUUAUAUUAAGUAGAAGGAGUUUUAGGAUAUUCGAGACAGUGCUUCUGGAG | 2.92
CGUACCCACACUGGCUGUAGCCACUUCAGUCCAUCUGCCCUCCAGAGGAGGGGUUUCUUCCUGAUUUUUAGCAGGUUUAGAGGCUGCAGCUUGAGCUACAAUCAGGAGGG | 0.495
UUUUUUUCUGUUUAUCAUGUUGAAUUUCAUUGACUUAAUUAGUCUUUAAAUUUGAAAACAUGUUUUAGGGAGUUUAGUUCUAGAAAUUUCUCUUAGAUUGAAGUGACAGA | 0.533
AGGAAUUAUUGUUAUUUAAUAAAUAUUUCAGGAUAUUUUUCCUCUACAAUAAAGUAACAAUUAACUUAUGUUUUUGUGCUUCAGAGUGAUCCAUUUGAUCAAGCAUUGUA | 0.46
AUGGACUUCUGAGCCGUCUGACUUCUCUCUUCUCCCCAAGAGUCCAAUGCUAGGACACUGGCCAUGUGCACACCAGCACUCAAGACAAGAAGCCAGCCUCCCGGCCCAGC | 0.534
GAGAGUUGGAGUCAAAGCCAUUGUUAUCUUUUGGUGACACCCUUAAAUUUUAAGUCUUCCAGUCUUCCAUGUGAACUUUAGGCCCAAAGUUUCUUAUGUAUCACACAUCC | 0.46
AAUUUAGUAACUUAGAUGCUUCCAGCACAUACGUAGGUAGCUACCCCAGCCGGUUUGGAUUACAGGCCUGUGCUGGAACAUCAUCUCAGUUGGCCACCUUCCUGGCAGGC | 0.308

Further values, each from its own experiment
Molecule | target | test | test system | conditions | scale | endpoint | value
PhoQ, residues 284 288 289 292 302 303 SVHLDV | PhoP, residues 12 14 15 18 19 YHFSH (Escherichia coli, UniProt P23836) | Sort-seq, refers to: YFP reporter | E. coli | PhoQ-PhoP variant library, with: 10 µM Mg2+ | reference: high Mg2+ state, higher = stronger signaling | fold induction | 1.79

For quick reference, copied from above (block 1):
Oligonucleotide | E-score
CCCGACCG | 0.349
CGCTGTAA | 0.189
GACTCAAA | -0.148
GATAGAGC | 0.0738
ACATTACC | 0.143
